Measurements pooled from the literature.
Numbered parts are unrelated; each lists some results of a single study. Positions count from the first letter of the parent shown.

Series 1
Target: Hepatocyte nuclear factor 3-alpha (Foxa1, Mus musculus, UniProt P35582, residues 1-468, full length assumed)
Technique: EMSA with sequencing
Form: double-stranded DNA, one strand shown
Matrix: in vitro
Concentration: 10 and 20 nM
Notes: whole designed probe, mean of two concentrations, ends assumed
Relative to: negative control set to 0
Direction: higher = stronger binding
Constant ends, left off below: GTGAGCGGTGCCCATTGATGGGGAAC … TTTCACTGGGATCGTGGGGAC
Target sequence (chain): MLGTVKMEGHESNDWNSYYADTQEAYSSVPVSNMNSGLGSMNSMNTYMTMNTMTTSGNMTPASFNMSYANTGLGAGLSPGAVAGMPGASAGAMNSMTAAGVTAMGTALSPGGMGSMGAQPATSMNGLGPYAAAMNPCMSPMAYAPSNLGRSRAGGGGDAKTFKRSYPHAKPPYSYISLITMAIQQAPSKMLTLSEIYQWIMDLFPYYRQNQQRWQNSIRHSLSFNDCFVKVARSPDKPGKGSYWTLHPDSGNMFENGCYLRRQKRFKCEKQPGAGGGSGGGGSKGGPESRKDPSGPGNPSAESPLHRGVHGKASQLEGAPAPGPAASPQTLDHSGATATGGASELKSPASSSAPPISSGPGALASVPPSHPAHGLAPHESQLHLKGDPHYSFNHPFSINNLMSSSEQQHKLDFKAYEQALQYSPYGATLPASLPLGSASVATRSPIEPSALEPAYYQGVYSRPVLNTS
| Sequence | normalised bound fraction [ratio] |
| --- | --- |
| ATAATCTGAGGTGGCGACTGGCCAGATAGCCTGCCCCTACTCACTCTGGCTGTAAAATAAGCCTACAGTATCCACAAGGGGAAATACTAACAGTGTAATCTAGCACATCAAGGTGCAGTCAAAGAAGCCAGGTCCCCACCGATGAGATGAAGAAAATAACCACCTAAGTCTCAGGTCCCTATATCTGCCTAAT | -0.0292 |
| GTACAAAATTGCACTCATTGCTCTCTTGCAGATGGCTTATTCTGGATCTCAGATAAAACTTATAAAGAAAACAAGTAGTATGGATTTATGCTAGATTACTTAGCCAGAGAAACAAAGGCAAATGCATATTCAGAGGTATACTGATAGCGATGTTTCCATGGAAACAAGGATGCTATCATAATATTTATTTCCA | 0.0351 |
| ACCAGTGCTATCTTCTGCCAACACCAGTAACAGCAGGCAGTAGGACTCCCTGAATAAACATTTTGAAGGCAAAGGTAAAGAAGGGTGGAATAAGCAATTTAGAAGTCACCATTCCTCCTGGAGTAAACCATTCCCTCCTCTGATTGCCTGAAGCTAACCATGAGACAGCAGGACTGGCTACATAATTTTCCAG | 0.216 |
| CTTACCCAGATTCAGCTGTTTGTCTTGATTAGGCATTCTCCTGTGGCTGTAAACTTTTGATGACATTCAAGAGCTCCAATGAAGTTGATTCTGAGATTGCCCATTTACATACTGTTTTTGTGAAGGGATGGAGTTGTGGAGTTCCCTACTCCACTACCTTCACTGACATTACTTCGTTTAAGTCCTTCATAAG | 0.0425 |
| ATAAAGATATTATGGTTATATAGAAAAATATCCTTATTTTGACGGCTGTACCATTTGAAGTATTTAGGGGACAAATGTCATGATGCCTATCTATATTTACTTTTAAATTGTTCAGCAAAAATAGCGGTATATAAGTATTTATAATAGATAGTAGATGAATCAAATATGGTCAAATGTTAGTTTTTGTTTTTGA | 0.324 |
| ACCTCATCTCAGGTATTTTCTGATGACGTATGTCTCAAGAAGAGTTCCTAGTAGCATCTGTGGTACCAGTTATGGAATTCTGAGTTTCTCTACAGATGACTTTTTCAAAGATCAGGGATCCAGGTCTAGCATCCTCACAATTTGTCTAAGTGCTGAATGAATGGAGTACTTAGAAAAGGCCTCTATTTAAGAT | 0.0356 |
| GAACAAAATACTTTTTGGCCTGCTTAATGTGGGAGAACATATAGACTTTTCTAGTTTCAGAGGTACTGGGAGACACTCCACATCACCTCAGTGTAAACAAGTGGTTCAGATCTCTGCTGTGAATATAGGCAGCTTTGGCTAAAATCCTGTTTTGTTTTGTTTTCTTTTTTGTTTTACAATAACTTAGTAACTT | 0.279 |
| TAAAGAATTTCTCAGTATAATTACCTCCAGCCAGGTTGCTTTTTTTAGCTCAAAAGAAAGATAAAAGGCGGAGTCCTGTAAATAAAGGGAATGTAATCTTGGAGACTGAACCAAAGGCAAGTTACGGGGAGATAAGAATACCTGAAGAGAATTCGATTCAGCTTGATGGTTTTACAGAAGCATATGAAAGTGG | 0.00958 |

Series 2
Target: Myc proto-oncogene protein, bHLH-zipper, MAX partner unstated (MYC, Homo sapiens, UniProt P01106, residues 368-449)
Sequence of UniProt P01106 (368-449, looked up): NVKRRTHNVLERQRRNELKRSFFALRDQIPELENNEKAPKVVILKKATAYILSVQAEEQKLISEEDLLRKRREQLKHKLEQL
Technique: protein-binding microarray
Form: double-stranded DNA, one strand shown
Matrix: in vitro
Concentration: not given
Notes: k-mer, scored over probes, only values ≥0.25
Direction: higher = stronger binding
| Sequence | E-score |
| --- | --- |
| AACGAGGG | 0.26 |
| AGAACGTG | 0.37 |
| GTGGACCA | 0.293 |
| ATGCTGCA | 0.267 |
| ACAGCATG | 0.433 |
| CAGCCACG | 0.375 |
| ACGTGATC | 0.314 |
| GCCACCCA | 0.252 |

Series 3
Target: ATP-dependent RNA helicase DDX3X, helicase core (DDX3X, Homo sapiens, UniProt O00571, residues 132-607)
Sequence of UniProt O00571 (132-607, looked up): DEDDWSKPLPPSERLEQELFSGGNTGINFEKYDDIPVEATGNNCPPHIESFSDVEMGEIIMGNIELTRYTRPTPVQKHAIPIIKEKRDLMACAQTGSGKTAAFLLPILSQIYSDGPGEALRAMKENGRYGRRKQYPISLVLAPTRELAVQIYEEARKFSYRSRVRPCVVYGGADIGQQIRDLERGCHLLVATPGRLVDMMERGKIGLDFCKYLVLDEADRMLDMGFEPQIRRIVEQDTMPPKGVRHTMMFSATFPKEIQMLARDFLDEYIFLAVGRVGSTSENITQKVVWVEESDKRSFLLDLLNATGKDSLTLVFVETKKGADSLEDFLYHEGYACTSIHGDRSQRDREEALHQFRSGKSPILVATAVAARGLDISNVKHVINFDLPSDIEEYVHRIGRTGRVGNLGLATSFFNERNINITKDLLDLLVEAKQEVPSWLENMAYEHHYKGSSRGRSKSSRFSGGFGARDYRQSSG
Technique: RNA Bind-n-Seq
Form: RNA
Matrix: in vitro
Concentration: not given
Notes: 4-mer, random 30-nt RNA, single round
Together with: RocA, ADP, phosphate
Relative to: input library
Direction: higher = stronger binding
| Sequence | 4-mer enrichment |
| --- | --- |
| AGGG | 1.64 fold |
| GGCU | 0.797 fold |
| UAUG | 1.02 fold |
| UCCA | 0.758 fold |
| AGAU | 1.16 fold |
| ACGA | 1.11 fold |
| GCAG | 0.913 fold |
| UGCC | 0.697 fold |

Further values, each from its own experiment
Parent: viral docking peptide; KGVKRKLFAEDSS
| Variant | target | assay | test system | conditions | how to read | endpoint | result |
| --- | --- | --- | --- | --- | --- | --- | --- |
| R5I | CCNB1, cyclin fold, Cln2 fusion (human) | yeast growth competition, sequencing | yeast | strong parent motif | relative to: not given, higher = stronger binding | normalised enrichment score | 0.926 |

For quick reference, copied from above (series 3):
| Sequence | 4-mer enrichment |
| --- | --- |
| AGGG | 1.64 fold |
| AGAU | 1.16 fold |
| GGCU | 0.797 fold |
| GCAG | 0.913 fold |
